Published values collected from several papers.
Each numbered part is a random draw from the data of one study; scales do not carry over between parts.

Set 1
Target: Histone acetyltransferase KAT6A, winged helix 2, GST fusion (KAT6A, Homo sapiens, UniProt Q92794, residues 85-181)
Method: protein binding microarray
Form: double-stranded DNA, one strand shown
Medium: in vitro
Tested at: not given
Setting: 8-mer, flanks averaged, mean of 2 arrays, mostly near background
Relative to: not given
Reading: higher = stronger binding
Endpoint: E-score
Residues (chain): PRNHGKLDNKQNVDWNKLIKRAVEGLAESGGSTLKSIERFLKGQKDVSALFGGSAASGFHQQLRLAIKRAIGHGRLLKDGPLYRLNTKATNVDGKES
CCCCCCCA: 0.0264
TCCCGTCA: -0.0618
CCGTAAGC: -0.0533
ATGGATGA: -0.149
TACACACA: 0.012
ATTTTCAC: 0.0102
AATTAAGA: 0.0743
CCAACCTA: 0.081
CCCATACA: -0.113
TACCTCCA: -0.0136

Set 2
Target: RNA binding protein fox-1 homolog 2, RRM domain, GST-SBP tag (RBFOX2, Homo sapiens, UniProt O43251-10, residues 100-194)
Method: RNA Bind-n-Seq
Form: RNA
Medium: in vitro
Tested at: 365 nM
Setting: natural RNA segment, single round, ends assumed
Relative to: no-protein control
Reading: higher = stronger binding
Endpoint: RBNS enrichment (R)
All sequences stand within: GGGAGUUCUACAGUCCGACGAUC … UGGAAUUCUCGGGUGCCAA
Target sequence (chain): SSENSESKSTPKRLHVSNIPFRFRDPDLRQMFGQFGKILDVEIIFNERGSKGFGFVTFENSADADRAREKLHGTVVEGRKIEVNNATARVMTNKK
UCAGAGUCAGUUGCACACCAGUAGGAUGGCAUGCUACGAUCAGUUUCUGUCCUGAAAGCUUUGCCUCUUUCUUGGCAAAGUUUCUGGUAUGGUCAAGCUUGUAAAUAACC: 0.573
AACCACCAAAAGGCCAGUGCCUCAACUCUUGAUUCUGAUGAGGUUUCUGGGAAGAGAUCAAAAUGGAGUCUCCUUACCAUGGACAAUACAUGCAAAGCAAUAUCUUGUUC: 0.324
GAUGGUUGUACAGUUUGAUUGGAGGCAUGGGGUGUAUGUGAAGUUGGAAGCCUUUGAUAGUUACUGCCUACCUUCAAUGGUGAUGAUAACAUUGUGACUCUUACUCGUUU: 0.894
CAAAGUGGCCAAACUUUUCAACUGUAAUUUUAUAAAUGAUACUACACUGAUAUAGCCAAUUAGAUUUAAAAUGUCUUCAAAAAUUACUUUAUUUUAUUUAAAGCAUCUGU: 0.438
AAUUUGCUCUGAAAAGAAGCACAGUUGGGUAGACGAGGCCCGUGGAUGUCAUUUUUUUUUUUCUGGGCAGAAGACAGUAUGGGGACCCAAGAAGUUCCCAUCAAAGACCA: 0.32
UAACUCAGGGAGGGAGGGGAGGUCCUUAGCUGGGGGAAAGGAGGCGAGGGUCCUUACUGCUGUGUACCAACACUGACCCCGCCCUCUCUGAGCUGUACUCUCUGCCCGUG: 0.766
AGUGCAGAACUUUUACCAGGCUGUAAAAGCAAAACCUCGUAUCAGCUCUGGAACAAUACCUGCAGUUAUUCUUCAGCUGUUUGGACAACUUAGAUUGGGUUUAUAACUAU: 0.419
UCUGCCAAAAAUCAAGGUUUAAAAAGCUGAGGCUUGUAUUUGAUCAUGCUUUUCACCUAAAUAGCAAUUUAAAUAUUUGAUGAGCUCUGAACAAACCCUGUAUCAAGUAU: 0.608
AAGCUCCAAUGUAUUAUGGAAACAUGUGCUUUUACGCCUCCAAUAAAACUAUGUUAUCGAUGGGCUCAGCUUCUAGAACCUUCUUUUCCGCUGAACCAGAAUCUAUCCCG: 0.436
CAUCCAGAGCUCCUCUGAAGCCAGGGGGCUAACGGAUGUUGUGUGGAGUCCUGGCUGGAGGUCCUCCCCCAGUGGCCUUCCUCCCUUCCUUUCACAGCCGGUCUCUCUGC: 0.261
UCGCGGCCCCAGGGCGGAGCCCAGCUGCGGGAGCUGCCGCUGCUCAGCCAGUGUCGGGAAGAGUUGCCCGCCAGCCUUCCAGAGUUCCCCUACCCGAUUGGUCCCGGCCU: 0.62

Set 3
Target: RING finger protein unkempt homolog, zinc fingers 1-6, SBP tag (UNK, Homo sapiens, UniProt Q9C0B0, residues 30-357)
UniProt Q9C0B0, sequence (30-357, looked up): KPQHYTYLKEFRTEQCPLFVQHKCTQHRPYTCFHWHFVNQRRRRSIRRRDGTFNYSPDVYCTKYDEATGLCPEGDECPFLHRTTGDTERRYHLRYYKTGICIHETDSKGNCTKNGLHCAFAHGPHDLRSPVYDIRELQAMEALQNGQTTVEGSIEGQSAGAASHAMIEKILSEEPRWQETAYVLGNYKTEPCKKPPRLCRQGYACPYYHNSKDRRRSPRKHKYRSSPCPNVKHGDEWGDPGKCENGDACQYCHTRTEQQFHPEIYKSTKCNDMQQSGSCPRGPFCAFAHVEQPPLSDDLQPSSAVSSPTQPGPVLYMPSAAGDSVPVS
Method: RNA Bind-n-Seq
Form: RNA
Medium: in vitro
Tested at: 100 nM
Setting: RNA with constant flanks, vertebrate orthologous sites, ends assumed
Relative to: input RNA pool
Reading: higher = stronger binding
Endpoint: bound/input enrichment
All sequences stand within: GGGAGUUCUACAGUCCGACGAUC … CAACAGAGGAUUGAGCAUCA
UCCUCAACUUGUUCUAGCUGGCGAUCCUUCAAAAUUGGGUCAGGCAUUAGUGCUAGGUACUAGCAAUGUUCAAUUCUCUGUUGCCAUUGAUCAGAGAGACAGACGUUAAAAACAGUAAUA: 0.762 ratio
AUAUUGUAUGUAGAGACAAAUUUUCAUUGACCCCAUUGUGAAAUUCCCUAGCAAUUUAUUUAGAAUCUUAAUUUUUCUAAUUAAAGUUCACUGUGUUAGUCAUUUUUAGUAUAAUUAAAA: 1.93 ratio
UCUCUGUAGGAUGAAGCUCUUACAUCAGGUGUCACGCGUUUGGAAAACAGAUGGGUUGACUAGCUGUUCUUAUAAAUUACUAUCUCUGGAGCACUACCCUUUGUAUGUCAACAUCACAGU: 0.411 ratio
UGUACUAGUAUCCUACCAGCCUACCAACCUCUCGUCUGCACAGCUUCAGAUGUUACCGUCUAGCUAGAUUUUUAUUUAAAAUAUGAAAAACUGCUUUUCCCAAGACGUUUUUUAAAAAAA: 1.16 ratio
AAUAGUUUUAAGCUUGUUUGCACAGCUUUUUUUAUCCAUGAGAAAUGGAAUCCAUUUUGCCUUAGGUCUUUUUAAAUAAUGUAUUCUUAUGUUUGGGCUGGCUCUAUGCUUGAAAACCAG: 1.57 ratio
ACGCUUUGAUAUUAAAUUUGACAUAAGAAGCAGCUGAUUGUAAGCACAACUCUUUCCUCCUAGCCAUUUAAAAAAGGUAAAAGACAAAAAAGAAAACCUACUAGUCUUGAACAAACUGUC: 0.65 ratio

Mixed results
PhoQ, residues 284 288 289 292 302 303 NLCILV
fold induction (PhoP, residues 12 14 15 18 19 VQALL (Escherichia coli, UniProt P23836); Sort-seq, refers to: YFP reporter; E. coli; PhoQ-PhoP variant library, with: 10 µM Mg2+; relative to: high Mg2+ state, higher = stronger signaling): 58

A few entries again (set 2):
GAUGGUUGUACAGUUUGAUUGGAGGCAUGGGGUGUAUGUGAAGUUGGAAGCCUUUGAUAGUUACUGCCUACCUUCAAUGGUGAUGAUAACAUUGUGACUCUUACUCGUUU: 0.894
CAAAGUGGCCAAACUUUUCAACUGUAAUUUUAUAAAUGAUACUACACUGAUAUAGCCAAUUAGAUUUAAAAUGUCUUCAAAAAUUACUUUAUUUUAUUUAAAGCAUCUGU: 0.438
